Published values collected from several papers.
Compare with care: the assays were run in different laboratories. pIC50: −log10 of the molar value.
Chain of UniProt Q9BYP7 (whole entry, looked up): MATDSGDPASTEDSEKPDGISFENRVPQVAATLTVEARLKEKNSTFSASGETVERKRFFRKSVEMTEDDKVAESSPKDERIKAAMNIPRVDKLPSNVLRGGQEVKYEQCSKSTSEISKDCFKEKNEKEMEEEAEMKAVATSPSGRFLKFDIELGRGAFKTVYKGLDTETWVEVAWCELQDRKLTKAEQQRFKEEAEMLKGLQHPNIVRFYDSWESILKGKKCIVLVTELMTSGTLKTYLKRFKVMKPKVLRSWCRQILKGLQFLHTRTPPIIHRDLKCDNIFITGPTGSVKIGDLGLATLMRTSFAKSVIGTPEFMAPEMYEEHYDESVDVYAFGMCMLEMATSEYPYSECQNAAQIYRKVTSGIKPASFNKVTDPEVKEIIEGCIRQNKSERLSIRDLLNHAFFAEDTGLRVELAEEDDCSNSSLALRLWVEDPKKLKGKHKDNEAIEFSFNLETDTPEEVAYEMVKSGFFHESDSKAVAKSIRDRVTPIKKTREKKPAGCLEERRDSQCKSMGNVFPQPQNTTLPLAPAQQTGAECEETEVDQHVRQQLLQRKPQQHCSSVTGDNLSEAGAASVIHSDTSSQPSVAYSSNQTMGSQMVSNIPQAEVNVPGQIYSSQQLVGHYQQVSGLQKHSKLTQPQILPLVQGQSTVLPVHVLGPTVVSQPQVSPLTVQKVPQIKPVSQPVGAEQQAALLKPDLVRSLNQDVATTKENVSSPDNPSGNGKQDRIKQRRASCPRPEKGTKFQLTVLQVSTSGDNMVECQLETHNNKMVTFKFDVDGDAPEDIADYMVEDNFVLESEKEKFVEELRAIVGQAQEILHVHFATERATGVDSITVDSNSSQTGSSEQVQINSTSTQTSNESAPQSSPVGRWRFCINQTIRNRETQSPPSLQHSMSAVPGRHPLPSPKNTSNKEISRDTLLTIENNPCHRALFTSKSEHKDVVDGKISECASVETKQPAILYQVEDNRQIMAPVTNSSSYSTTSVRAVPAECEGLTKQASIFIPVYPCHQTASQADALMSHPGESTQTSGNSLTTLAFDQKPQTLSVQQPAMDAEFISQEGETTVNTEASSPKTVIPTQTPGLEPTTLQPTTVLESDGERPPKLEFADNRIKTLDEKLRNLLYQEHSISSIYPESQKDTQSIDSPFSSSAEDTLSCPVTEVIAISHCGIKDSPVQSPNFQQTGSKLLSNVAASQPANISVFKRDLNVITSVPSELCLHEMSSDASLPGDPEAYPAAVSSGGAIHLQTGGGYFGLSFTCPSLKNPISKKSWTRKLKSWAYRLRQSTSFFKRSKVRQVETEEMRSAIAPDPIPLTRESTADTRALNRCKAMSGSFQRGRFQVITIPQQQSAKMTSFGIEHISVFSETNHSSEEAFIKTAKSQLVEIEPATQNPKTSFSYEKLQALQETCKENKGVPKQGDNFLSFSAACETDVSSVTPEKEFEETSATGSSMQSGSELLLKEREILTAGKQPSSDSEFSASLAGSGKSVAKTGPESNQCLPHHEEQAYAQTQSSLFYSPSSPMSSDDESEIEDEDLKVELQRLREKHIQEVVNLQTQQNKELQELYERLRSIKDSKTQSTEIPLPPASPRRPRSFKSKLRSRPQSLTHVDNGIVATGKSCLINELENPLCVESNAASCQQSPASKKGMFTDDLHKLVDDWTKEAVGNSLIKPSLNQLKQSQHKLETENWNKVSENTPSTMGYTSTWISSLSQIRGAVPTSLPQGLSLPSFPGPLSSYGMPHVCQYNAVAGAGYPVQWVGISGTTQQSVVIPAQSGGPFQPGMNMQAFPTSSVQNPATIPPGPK
Chain of UniProt O95747 (whole entry, looked up): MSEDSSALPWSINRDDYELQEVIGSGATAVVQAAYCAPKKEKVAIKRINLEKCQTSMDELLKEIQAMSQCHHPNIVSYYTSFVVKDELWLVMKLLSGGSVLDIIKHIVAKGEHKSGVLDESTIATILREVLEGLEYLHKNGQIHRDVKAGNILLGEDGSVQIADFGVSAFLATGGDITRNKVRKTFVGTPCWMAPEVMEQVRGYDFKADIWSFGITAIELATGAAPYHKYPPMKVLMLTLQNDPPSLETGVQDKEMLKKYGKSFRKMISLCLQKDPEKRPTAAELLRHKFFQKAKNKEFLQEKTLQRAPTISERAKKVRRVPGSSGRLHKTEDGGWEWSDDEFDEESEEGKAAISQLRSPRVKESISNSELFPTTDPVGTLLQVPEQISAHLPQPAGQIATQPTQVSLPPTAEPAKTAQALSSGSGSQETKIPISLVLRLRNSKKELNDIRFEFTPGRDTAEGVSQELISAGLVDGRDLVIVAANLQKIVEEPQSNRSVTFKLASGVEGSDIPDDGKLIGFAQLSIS

| SMILES | target or system | test | test system | setting | quantity | result |
| --- | --- | --- | --- | --- | --- | --- |
| C/C=C1/CN2CC[C@]34C(=Nc5ccccc53)[C@@H]2C[C@@H]1C4(COC(C)=O)C(=O)OC (some centres unmarked) |  |  | Caco-2 | pH 7.4 | Papp B→A | 37.7 ×10⁻⁶ cm/s |
| CC(=O)c1c(C)c2cnc(Nc3ccc(C4CCN(CCS(C)(=O)=O)CC4)cn3)nc2n(C2CCCC2)c1=O |  | general toxicity | beagle dog | oral, multiple doses | MTD | 6 mg/kg/day |
| N=c1c2c(-c3ccccc3)c(-c3ccccc3)n(Cc3ccccc3)c2ncn1[C@H]1CC[C@H](O)CC1 |  |  | male beagle dog, plasma | intravenous, 0.5 mg/kg, single dose | AUC(0-t) | 4400 ng·h/mL |
| C[C@H]1O[C@@H](O[C@H]2[C@@H](O)C[C@H](O[C@H]3[C@@H](O)C[C@H](O[C@H]4CC[C@@]5(C)[C@H](CC[C@@H]6[C@@H]5C[C@@H](O)[C@]5(C)[C@@H](C7=CC(=O)OC7)CC[C@]65O)C4)O[C@@H]3C)O[C@@H]2C)C[C@H](O)[C@@H]1O |  |  | Caco-2 | 10 µM, 2 h, pH 7.4 | Papp B→A | 27.1 ×10⁻⁶ cm/s |
| [18FH] |  |  | mouse, spleen | intravenous, 1 h | tracer uptake | 0.16 %ID/g |
| CC[C@H](C)[C@H](NC(=O)[C@H](CC(C)C)NC(=O)[C@@H](NC(=O)[C@H](CCCCN)NC(=O)[C@H](CCCNC(=N)N)NC(=O)[C@H](CCCCN)NC(=O)[C@H](CC(C)C)NC(=O)[C@H](Cc1ccc(O)cc1)NC(=O)[C@@H](NC(=O)[C@@H](NC(=O)[C@H](Cc1ccccc1)NC(=O)CN)C(C)C)C(C)C)[C@@H](C)O)C(=O)N[C@@H](CCCNC(=N)N)C(=O)N[C@@H](CC(C)C)C(=O)N[C@@H](CC(C)C)C(=O)N[C@@H](Cc1ccccc1)C(=O)N[C@H](C(=O)N[C@@H](CC(N)=O)C(=O)N[C@@H](CCCCN)C(=O)N[C@@H](CCCCN)C(=O)N[C@H](C(=O)N[C@H](C(=O)N[C@H](C(=O)N[C@@H](CCC(=O)O)C(=O)N[C@@H](CCCCN)C(=O)N[C@@H](CC(C)C)C(=O)N[C@@H](CCCNC(=N)N)C(=O)N[C@@H](CS)C(=O)N[C@H](C(=O)N[C@@H](CCCNC(=N)N)C(=O)N1CCC[C@H]1C(=O)N[C@@H](CO)C(=O)N[C@@H](CCCNC(=N)N)C(=O)N1CCC[C@H]1C(=O)N1CCC[C@H]1C(=O)N[C@@H](CCCNC(=N)N)C(=O)NCC(=O)N[C@@H](Cc1ccccc1)C(=O)O)C(C)C)[C@@H](C)CC)[C@@H](C)O)[C@@H](C)O)[C@@H](C)O |  | chemical stability | male human, serum | 2 mg/mL, 30 min | compound remaining | 11% |
| C/C=C1/CN2CC[C@@]34c5cc(O)ccc5N(C)[C@]35OC[C@@]4(C(=O)OC)[C@H]1C[C@H]25 |  |  | male Sprague-Dawley rat, plasma | intravenous, 1 mg/kg | AUC(0-inf) | 303 ng·h/mL |
| Cl.Cn1c(=O)n(CCCCN2CCC3(CC2)OCc2ccccc23)c2ccccc21 |  |  | male Sprague-Dawley rat, plasma | intravenous, 5 mg/kg | half-life | 4.4 h |
| CN1CCN(S(=O)(=O)c2cc([N+](=O)[O-])ccc2N(CCOS(C)(=O)=O)CCOS(C)(=O)=O)CC1 |  |  | female SCID mouse, plasma | intraperitoneal, 10 mg/kg | MRT(0-inf) | 0.39 h |
| Nc1nc(-c2ccccc2)nc2[nH]nc(Nc3ccc(C(F)(F)F)cc3)c12 |  |  | mouse, plasma | oral, 100 mg/kg, 7 h | concentration | 614 ng/mL |
| Nc1ncc(-c2nc(N3CCOCC3)nc(N3CCOCC3)n2)c(C(F)F)n1 | Tyrosine-protein kinase ABL1, phosphorylated (ABL1, Homo sapiens, UniProt P00519, H396P) | binding, competition with immobilised ligand |  | 10 µM | remaining binding | 60% |
| CN(C)C1(CNC(=O)c2ccc3c(c2)CCN3C(=O)c2ccccc2)CCOCC1 |  |  | male C57BL/6 mouse, brain | intraperitoneal, 50 mg/kg, 30 min | concentration | 550 ng/g |
| O=C(CSc1nnc(O)n1Cc1ccccc1)Nc1ccccc1-c1ccccc1 | Dihydroorotate dehydrogenase (quinone), mitochondrial (PFF0160c, Plasmodium falciparum, UniProt Q08210) | enzyme activity, inhibitor, absorbance |  |  | pIC50 | 6.47 |
| Cn1c(=O)ccc2ccc(F)c(CCNC[C@H]3CN(c4ncc5c(n4)NC(=O)CO5)C(=O)O3)c21 |  | metabolic stability | human, hepatocytes | 0.5 µM | hepatocyte CLint | 1.1 µL/min/10⁶ cells |
| CC(C)C[C@H](NC(=O)[C@H](Cc1ccccc1)NC(=O)[C@H](Cc1ccccc1)NC(=O)Cc1ccc(-c2ccccc2)cc1)C(=O)N[C@@H](CCCCN)C(=O)N[C@@H](CCCNC(=N)N)C(=O)N[C@H](C(=O)N[C@@H](Cc1c[nH]c2ccccc12)C(=O)N[C@@H](CCCCN)C(=O)N[C@@H](CCCNC(=N)N)C(=O)O)C(C)C |  | metabolic stability | dog, liver microsomes | 1 µM | half-life | 0.632 h |
| CC[C@H](C)CCCCC(=O)N[C@@H](CCN)C(=O)N[C@H](C(=O)N[C@@H](CCN)C(=O)N[C@H]1CCNC(=O)[C@H]([C@@H](C)O)NC(=O)[C@H](CCN)NC(=O)[C@H](CCN)NC(=O)[C@H](CC(C)C)NC(=O)[C@@H](CC(C)C)NC(=O)[C@H](CCN)NC1=O)[C@@H](C)O |  |  | male Sprague-Dawley rat, plasma | intravenous, 5 mg/kg | AUC(0-t) | 12500 ng·h/mL |
| CC(C)(N)CNC(=O)O[C@H]1CCC[C@@]2(C1)OOC1(O2)C2CC3CC(C2)CC1C3 (some centres unmarked) |  |  | male CD-1 mouse, plasma | intravenous, 3 mg/kg | AUC(0-t) | 648 ng·h/mL |
| COc1ccc(C[C@@H](C)[C@@H](C)Cc2ccc(OC)c(OC)c2)cc1OC |  | general toxicity | female beagle dog | oral, multiple doses | NOAEL | 1000 mg/kg/day |

| SMILES | target or system | test | test system | setting | quantity | result |
| --- | --- | --- | --- | --- | --- | --- |
| CC1(C)NC(=O)N(c2cc(Cl)c(F)c(C(F)(F)F)c2)C1=O |  | metabolic stability | mouse, liver microsomes |  | microsomal CLint | < 7 µL/min/mg |
| CCN(CC)CCCC[C@H](NC(=O)[C@H](CC(C)C)NC(=O)[C@H](C)NC(=O)[C@H](Cc1ccccc1)NC(=O)c1ccc(C(C)(C)C)cc1)C(=O)N[C@@H](CO)C(=O)OC |  |  | male Swiss mouse, blood | intraperitoneal, 10 mg/kg | AUC(0-t) | 1550 ng·h/mL |
| CC(=O)c1c([O-])cc(C)oc1=O.[Na+] |  |  | rat, serum | oral, 200 mg/kg | half-life | 10.7 h |
| N=C(N)NCCC[C@@H](NC(=O)[C@@H](N)Cc1ccccc1)C(=O)N[C@@H](Cc1ccccc1)C(=O)N[C@@H](CCCCN)C(N)=O |  |  | human, plasma | subcutaneous, 5 mg, multiple doses, once daily, patients | half-life | 2.99 h |
| CC(C)NCC(O)COc1cccc2ccccc12 (centres unmarked) |  |  | Caco-2 | 10 µM, 2 h, pH 7.4 | Papp A→B | 29.1 ×10⁻⁶ cm/s |
| CC(C)C(NC(=O)Cc1cccc2ccccc12)C(=O)Nc1cccc(C#N)c1 (centres unmarked) | Dihydroorotate dehydrogenase (quinone), mitochondrial (PFF0160c, Plasmodium falciparum, UniProt Q08210, E182D) | enzyme activity, inhibitor, absorbance |  |  | pIC50 | < 5.00 |
| O=C(Nc1cccnn1)N1CCN([C@@H]2CCOc3cc(C(F)(F)F)ccc32)CC1 |  |  | male Sprague-Dawley rat, brain | oral, 1 mg/kg, 1 h | concentration | 664 ng/g |
| Cc1nn(C)cc1-c1nc2c(N3CCN(Cc4ccc(Cl)cc4)CC3)c(Cl)cnc2[nH]1 | Serine/threonine-protein kinase OSR1 (OXSR1, Homo sapiens, UniProt O95747) | binding, competition with immobilised ligand |  | 1 µM | remaining binding | 66% |
| CCC[C@@](N)(CO)CCc1ccc(OCCCCCC(C)C)cc1 |  |  | rat, plasma | oral, 10 mg/kg | bioavailability | 24% |
| CC(C)CC(=O)OC[C@H]1O[C@@](C#N)(c2ccc3c(N)ncnn23)[C@H](O)[C@@H]1O |  | general toxicity | Sprague-Dawley rat | oral, single dose | MTD | ≥ 3000 mg/kg |
| NCCNC(=O)O[C@H]1CCC[C@@]2(C1)OOC1(O2)C2CC3CC(C2)CC1C3 (some centres unmarked) |  |  | male CD-1 mouse, plasma | oral, 10 mg/kg | AUC(0-inf) | 1090 ng·h/mL |
| [2H]c1c([2H])c([C@]2([2H])CCCN2C(=O)C(C)(C)Oc2ccc3cn[nH]c3c2)c([2H])c([2H])c1C([2H])([2H])[2H] | Serine/threonine-protein kinase WNK3 (WNK3, Homo sapiens, UniProt Q9BYP7) | binding, competition with immobilised ligand |  | 1 µM | remaining binding | 86% |
| Cc1cc(C)nc(Nc2ncc(C(=O)NCCc3c(C)[nH]c4ccccc34)cn2)c1 |  |  | C57BL/6 mouse, plasma | intraperitoneal, 22 mg/kg | AUC(0-inf) | 1640 ng·h/mL |
| Cc1[nH]c(C)c(S(=O)(=O)Nc2ccc(S(F)(F)(F)(F)F)cc2)c1C(=O)N1CCC(F)(F)C1 |  |  | PAMPA |  | Papp | 6.4 ×10⁻⁶ cm/s |
| [2H]C([2H])([2H])n1cc2cc(Nc3nc(=O)n(Cc4ncn(C)n4)c(=O)n3Cc3cc(F)c(F)cc3F)c(Cl)cc2n1 |  |  | male Sprague-Dawley rat, plasma | oral, 25 mg/kg | bioavailability | 73.6% |
| COc1ccc(F)cc1C(=O)NCc1ccc(-c2nn([C@@H](C)C(F)(F)F)c(N)c2C(N)=O)cc1 |  |  | human, plasma | oral, 200 mg, single dose | Cmax | 4880 ng/mL |
| C=C(C)[C@@H]1CC[C@]2(NCCN3CCS(=O)(=O)CC3)CC[C@]3(C)[C@H](CC[C@@H]4[C@@]5(C)CC=C(C6=CC[C@@](COc7ncccc7C#N)(C(=O)O)CC6)C(C)(C)[C@@H]5CC[C@]43C)[C@@H]12 |  |  | human, plasma | oral, 100 mg, single dose, fasted | AUC(0-t) | 3520 ng·h/mL |

For quick reference, copied from above:
| SMILES | target or system | test | test system | setting | quantity | result |
| --- | --- | --- | --- | --- | --- | --- |
| Nc1nc(-c2ccccc2)nc2[nH]nc(Nc3ccc(C(F)(F)F)cc3)c12 |  |  | mouse, plasma | oral, 100 mg/kg, 7 h | concentration | 614 ng/mL |
| CN1CCN(S(=O)(=O)c2cc([N+](=O)[O-])ccc2N(CCOS(C)(=O)=O)CCOS(C)(=O)=O)CC1 |  |  | female SCID mouse, plasma | intraperitoneal, 10 mg/kg | MRT(0-inf) | 0.39 h |
| C[C@H]1O[C@@H](O[C@H]2[C@@H](O)C[C@H](O[C@H]3[C@@H](O)C[C@H](O[C@H]4CC[C@@]5(C)[C@H](CC[C@@H]6[C@@H]5C[C@@H](O)[C@]5(C)[C@@H](C7=CC(=O)OC7)CC[C@]65O)C4)O[C@@H]3C)O[C@@H]2C)C[C@H](O)[C@@H]1O |  |  | Caco-2 | 10 µM, 2 h, pH 7.4 | Papp B→A | 27.1 ×10⁻⁶ cm/s |
| CC(=O)c1c([O-])cc(C)oc1=O.[Na+] |  |  | rat, serum | oral, 200 mg/kg | half-life | 10.7 h |
